Experimental data gathered from unrelated publications.
Lines come from different studies, so protocols differ. Numbers after ± are the reported error.

Compound | target or system | test | test system | conditions | scale | quantity | result
CNC(=O)C1CCCN(C(=O)C2CC3CCC2N3C(=O)[C@@H]2C[C@@H](O)CN2C(=O)NCc2cccc(Cl)c2F)C1 (mixture of isomers) | CYP3A4 (human) | inhibitor, time-dependent inhibition | – | 0.206 µM, preincubated without NADPH, with: testosterone substrate | – | 6β-hydroxytestosterone formation | 168 ng/mL
N#C[C@@H]1CC(F)(F)CN1C(=O)CNC(=O)c1ccnc2c(NC(=O)CCOCCOCCOCCOCCOCCOCCNC(=O)[C@H](CCCCNC(=O)CN3CCN(CC(=O)[O-])CCN(CC(=O)[O-])CCN(CC(=O)[O-])CC3)NC(=O)CCCc3ccc(I)cc3)cccc12.[177Lu+3] | U-87 MG tumour model | – | host not given, blood | 48 h, tumour-bearing | – | tracer uptake | 0.98 %ID/g
N#C[C@@H]1CCCN1C(=O)CNC(=O)c1ccnc2ccc(OCCCN3CCN(C(=O)CCc4ccc5c(c4)CN4CCN6CC(=O)[O][68Ga-]([O]C(=O)C4)([O]5)[O]c4ccc(CCC(=O)N5CCN(CCCOc7ccc8nccc(C(=O)NCC(=O)N9CCC[C@H]9C#N)c8c7)CC5)cc4C6)CC3)cc12 | U-87 MG tumour model | – | host not given, intestine | 2 h, tumour-bearing | – | tracer uptake | 2.67 %ID/g
CCN(CC)CC#CCNc1ccnc2cc(Cl)ccc12 | Salmonella typhimurium | mini-Ames test | TA102 | 500.0 µg/well, with rat liver S9 | – | mean revertants | 87 revertants/well
C=C(NC(=O)c1csc(-c2nc3c(cc2O)-c2nc(cs2)C(=O)NC(C(C)O)C(=O)NC(=C(C)OC)c2nc(cs2)C(=O)NC2c4nc(cs4)C(=O)NC(COC(=O)c4c5c6c(cccc6n4O)COC(=O)C(OC4CC(C)(O)C(N(C)C)C(C)O4)C2OC5)c2nc-3cs2)n1)C(N)=O (centres unmarked) | – | – | cynomolgus monkey, male, plasma | intravenous infusion, 9 mg/kg single dose | – | clearance | 3.3 mL/min/kg
O=C1NC2(CC2)COc2ncc(F)cc2[C@H]2COCCN2c2ccn3ncc1c3n2 | Salmonella typhimurium | Ames test | TA97a | 500 µg/plate, 48 h, with: rat liver S9 | – | revertant colonies | 102 ± 17 revertants/plate
COc1cccc(OC)c1-c1cc(C(=O)NC2(C(=O)O)C3CC4CC(C3)CC2C4)nn1-c1ccc(C(=O)N(C)CCOCCOCCN(C)C(=O)[C@H](CCCCNC(=O)[C@H](CC(C)C)NC(=O)C2OC2C(=O)O)NC(=O)CN2CCN(CC(=O)[O-])CCN(CC(=O)[O-])CCN(CC(=O)[O-])CC2)cc1C(C)C.[177Lu+3] (mixture of isomers) | HT-29 tumour model | – | host not given, bone | 7 days, tumour-bearing | – | tracer uptake | 0.002 %ID/g
Ic1cc2nc(c1)CNCc1cc(I)cc(n1)CNC2.[Cu+2] | Cu(II)/Cu(I) redox couple | cyclic voltammetry | DMF | with: TBAP | reference: Fc/Fc+ | cathodic peak potential | -737 mV
CC(C)OCCOCc1ccc(OCC(O)CN(N=O)C(C)C)cc1 (centres unmarked) | Salmonella typhimurium | Ames test | TA98 | 158 µg/plate, without metabolic activation | reference: solvent control | revertant fold increase | 0.8 fold
N#C[C@@H]1CC(F)(F)CN1C(=O)CNC(=O)c1ccnc2c(NC(=O)[C@H](CCCCNC(=O)CCOCCOCCOCCOCCOCCOCCNC(=O)CN3CCN(CC(=O)[O-])CCN(CC(=O)[O-])CCN(CC(=O)[O-])CC3)NC(=O)CCCc3ccc(I)cc3)cccc12.[177Lu+3] | U-87 MG tumour model | – | host not given, liver | 72 h, tumour-bearing | – | tracer uptake | 1.81 %ID/g
O=C(Nc1cnccc1-c1ccc([18F])cc1)c1ccnc(NC(=O)C2CC2)c1 | – | – | mice, transgenic, GSK-3β, early-stage, feces | intravenous, dose not given, 120 min | – | SUV | 5.53
C[N+](C)(CCOCCOCCOCCNC(=S)Nc1ccc(C[C@H]2CN(CC(=O)[O-])CCN(CC(=O)[O-])CCN2CC(=O)[O-])cc1)C[c-]1cccc1.[64Cu+2].[Fe+2].c1cc[cH-]c1 | – | pretargeted biodistribution | nude mouse, BxPC-3 xenograft tumour | 8 h post injection, 216 h lag time | – | tumour uptake | 1.1 ± 0.4 %ID/g
COc1cccc(OC)c1-c1cc(C(=O)NC2(C(=O)O)C3CC4CC(C3)CC2C4)nn1-c1ccc(C(=O)N(C)CCCN(C)C(=O)[C@H](CCCCNC(=O)[C@H](CC(C)C)NC(=O)C2OC2C(=O)O)NC(=O)CN2CCN(CC(=O)[O-])CCN(CC(=O)[O-])CCN(CC(=O)[O-])CC2)cc1C(C)C.[177Lu+3] (mixture of isomers) | HT-29 tumour model | – | host not given, pancreas | 24 h, tumour-bearing | – | tracer uptake | 0.12 %ID/g
COC(=O)Nc1nc2cc(C(O)c3ccc(F)cc3)ccc2[nH]1 (centres unmarked) | Salmonella typhimurium | Ames preincubation test | TA1537 | 109.4 µg/plate, without S9 | – | revertants | 12 revertants/plate
[Cu+2].c1cc2nc(c1)CNCc1cccc(n1)CNC2 | Cu(II)/Cu(I) redox couple | cyclic voltammetry | DMF | with: TBAP | reference: Fc/Fc+ | cathodic peak potential | -789 mV
O=C(OC[C@@]1(O)C(=O)C=C[C@H]2[C@@H]1[C@H]1C=C[C@@H]2C(=O)[C@]1(O)COC(=O)c1ccccc1)c1ccccc1 | SW480 | cell growth or viability, MTT | – | – | – | IC50 | 155 µM
FC(F)(F)c1cc2nc(c1)CNCc1cc(C(F)(F)F)cc(n1)CNC2.[Cu+2] | Cu(II)/Cu(I) redox couple | cyclic voltammetry | DMF | with: TBAP | reference: Fc/Fc+ | half-wave potential | -716 mV
O=C1C2CC3CC1CC(C(=O)N1CCN(c4ccc([N+](=O)[O-])c5ncccc45)CC1)(C3)C2 | Escherichia coli | Ames test | WP2 uvrA pKM101 | 0.78 µg/well, without S9 | reference: vehicle | revertant fold increase | 1
N#C[C@@H]1CCCN1C(=O)CNC(=O)c1ccnc2ccc(OCCCN3CCN(C(=O)CCc4ccc(O)c(CN5CCN6CC(=O)[O][Al-]([18F])([O]C(=O)C5)[O]c5ccc(CCC(=O)N7CCN(CCCOc8ccc9nccc(C(=O)NCC(=O)N%10CCC[C@H]%10C#N)c9c8)CC7)cc5C6)c4)CC3)cc12 (some centres unmarked) | U-87 MG tumour model | – | host not given, liver | 1 h, tumour-bearing | – | tracer uptake | 9.79 %ID/g
COc1cccc(OC)c1-c1cc(C(=O)NC2(C(=O)O)C3CC4CC(C3)CC2C4)nn1-c1ccc(C(=O)NCCNC(=O)[C@H](CCCCNC(=O)[C@H](CC(C)C)NC(=O)C2OC2C(=O)O)NC(=O)CN2CCN(CC(=O)[O-])CCN(CC(=O)[O-])CCN(CC(=O)[O-])CC2)cc1C(C)C.[177Lu+3] (mixture of isomers) | HT-29 tumour model | – | host not given, stomach | 4 h, tumour-bearing | – | tracer uptake | 0.42 %ID/g

Excerpt of the above:
Compound | target or system | test | test system | conditions | scale | quantity | result
N#C[C@@H]1CCCN1C(=O)CNC(=O)c1ccnc2ccc(OCCCN3CCN(C(=O)CCc4ccc5c(c4)CN4CCN6CC(=O)[O][68Ga-]([O]C(=O)C4)([O]5)[O]c4ccc(CCC(=O)N5CCN(CCCOc7ccc8nccc(C(=O)NCC(=O)N9CCC[C@H]9C#N)c8c7)CC5)cc4C6)CC3)cc12 | U-87 MG tumour model | – | host not given, intestine | 2 h, tumour-bearing | – | tracer uptake | 2.67 %ID/g
